Measurements from different studies.
A part holds a random share of what one study measured.

Block 1 — Structure (SMILES): COc1cc2ncnc(Nc3cccc(Cl)c3)c2cc1OC; read-out: enzyme activity; mode: inhibitor; concentration: 0.5 µM; reference: control
target | remaining activity [%]
Serine/threonine-protein kinase MRCK beta (CDC42BPB, Homo sapiens, UniProt Q9Y5S2) | 84.9
Misshapen-like kinase 1 (MINK1, Homo sapiens, UniProt Q8N4C8) | 83.1
Myosin-IIIb (MYO3B, Homo sapiens, UniProt Q8WXR4) | 81.2
Mitogen-activated protein kinase 11 (MAPK11, Homo sapiens, UniProt Q15759) | 97.5
Cyclin-dependent kinase 9, with cyclin K (CDK9, Homo sapiens, UniProt P50750) | 106
Hepatocyte growth factor receptor (MET, Homo sapiens, UniProt P08581) | 75.5
Mitogen-activated protein kinase 1 (MAPK1, Homo sapiens, UniProt P28482) | 91.7
G protein-coupled receptor kinase 4 (GRK4, Homo sapiens, UniProt P32298) | 102
Vascular endothelial growth factor receptor 2 (KDR, Homo sapiens, UniProt P35968) | 74.7
MAP/microtubule affinity-regulating kinase 4 (MARK4, Homo sapiens, UniProt Q96L34) | 98.5
Serine/threonine-protein kinase PLK3 (PLK3, Homo sapiens, UniProt Q9H4B4) | 92.3
Tyrosine-protein kinase TXK (TXK, Homo sapiens, UniProt P42681) | 75
Dual specificity mitogen-activated protein kinase kinase 1 (MAP2K1, Homo sapiens, UniProt Q02750) | 98.5
Serine/threonine-protein kinase PAK 3 (PAK3, Homo sapiens, UniProt O75914) | 98.9

Block 2 — read-out: cell-free assay; technique: competition with immobilised ligand; concentration: 1 µM
Compound: CN(C)C(=O)Cn1cc(-c2nc([C@@](C)(c3ccc(-c4cnc(N)nc4)cc3)C3CC3)no2)cn1
target | remaining binding
Serine/threonine-protein kinase 32C (STK32C, Homo sapiens, UniProt Q86UX6) | 88%
BMP-2-inducible protein kinase (BMP2K, Homo sapiens, UniProt Q9NSY1) | 100%
Epidermal growth factor receptor (EGFR, Homo sapiens, UniProt P00533, L858R) | 100%
Mitogen-activated protein kinase kinase kinase kinase 2 (MAP4K2, Homo sapiens, UniProt Q12851) | 100%
Glycogen synthase kinase-3 beta (GSK3B, Homo sapiens, UniProt P49841) | 100%
Ribosomal protein S6 kinase alpha-6, C-terminal kinase domain (RPS6KA6, Homo sapiens, UniProt Q9UK32) | 100%
Mitogen-activated protein kinase kinase kinase 3 (MAP3K3, Homo sapiens, UniProt Q99759) | 86%
Serine/threonine-protein kinase/endoribonuclease IRE1 (ERN1, Homo sapiens, UniProt O75460) | 86%

Block 3 — species: mouse; medium: microsomes or S9; concentration: 2 µM; time: 0.5 h
Structure (SMILES) | remaining compound
C=CCc1c(O)ccc2[nH]cc(S(=O)(=O)c3ccc(C)cc3)c12 | 5.88%
C=CCc1cc(CNc2ncnc3nn(C)cc23)cc(OC)c1OC | 16.3%
c1ccc2c(c1)OCC(c1nn3c(Cn4cnc5ccccc54)nnc3s1)O2 (centres unmarked) | 20.3%
CCOc1cc(CNCCCN2CCOCC2)cc(Br)c1OCc1ccccc1Cl | 5.9%
c1ccc2c(c1)OCC(c1csc(C3COc4ccccc4O3)n1)O2 (centres unmarked) | 55.9%
Oc1cc(CCn2cnc(-c3ccccc3)c2-c2cccc3cccnc23)ncn1 | 83.8%
O=C(Cn1ccccc1=O)N1C[C@@H]2CC[C@H](C1)N(Cc1cscn1)C2=O | 94.6%
Nc1oc(=O)c2ccccc2c1N1CCCc2ccccc21 | 32.7%

Further values, each from its own experiment — technique: biochemical; concentration: 1 µM
Target: Serine/threonine-protein kinase mTOR (MTOR, Homo sapiens, UniProt P42345)
Compound | remaining activity
COc1ccc2[nH]c3c4[nH]c5ccc(OC)cc5c4c4c(c3c2c1)C(=O)NC4=O | 100%
Cc1ccc(NC(=O)c2ccnc(C(F)(F)F)c2)cc1-c1cc(OCCO)nc(N2CCOCC2)c1 | 99%

Excerpt of the above (block 1):
target | remaining activity [%]
Mitogen-activated protein kinase 11 (MAPK11, Homo sapiens, UniProt Q15759) | 97.5
Serine/threonine-protein kinase PLK3 (PLK3, Homo sapiens, UniProt Q9H4B4) | 92.3
